Assay results from different studies.
Every numbered part comes from another study and shows a few of its results, in no order. Values joined by “and” are separate records of one study, mostly repeats; a detail may differ.
Chain of UniProt P42681 (whole entry, looked up): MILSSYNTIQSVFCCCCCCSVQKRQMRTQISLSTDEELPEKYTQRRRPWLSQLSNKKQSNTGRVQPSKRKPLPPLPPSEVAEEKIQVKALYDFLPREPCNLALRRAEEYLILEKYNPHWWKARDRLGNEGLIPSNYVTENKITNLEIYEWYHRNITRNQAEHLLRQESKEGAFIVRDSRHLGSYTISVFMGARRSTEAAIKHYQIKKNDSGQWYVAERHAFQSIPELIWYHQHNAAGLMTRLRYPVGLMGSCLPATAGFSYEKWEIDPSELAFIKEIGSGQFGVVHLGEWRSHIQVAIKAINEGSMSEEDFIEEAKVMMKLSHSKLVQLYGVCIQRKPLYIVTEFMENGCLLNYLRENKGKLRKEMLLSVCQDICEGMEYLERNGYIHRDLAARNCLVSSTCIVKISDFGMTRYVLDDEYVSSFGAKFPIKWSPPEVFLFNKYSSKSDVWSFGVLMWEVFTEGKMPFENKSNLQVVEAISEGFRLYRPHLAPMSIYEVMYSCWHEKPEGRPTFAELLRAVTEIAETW
Chain of UniProt P42336 (whole entry, unmodified, looked up): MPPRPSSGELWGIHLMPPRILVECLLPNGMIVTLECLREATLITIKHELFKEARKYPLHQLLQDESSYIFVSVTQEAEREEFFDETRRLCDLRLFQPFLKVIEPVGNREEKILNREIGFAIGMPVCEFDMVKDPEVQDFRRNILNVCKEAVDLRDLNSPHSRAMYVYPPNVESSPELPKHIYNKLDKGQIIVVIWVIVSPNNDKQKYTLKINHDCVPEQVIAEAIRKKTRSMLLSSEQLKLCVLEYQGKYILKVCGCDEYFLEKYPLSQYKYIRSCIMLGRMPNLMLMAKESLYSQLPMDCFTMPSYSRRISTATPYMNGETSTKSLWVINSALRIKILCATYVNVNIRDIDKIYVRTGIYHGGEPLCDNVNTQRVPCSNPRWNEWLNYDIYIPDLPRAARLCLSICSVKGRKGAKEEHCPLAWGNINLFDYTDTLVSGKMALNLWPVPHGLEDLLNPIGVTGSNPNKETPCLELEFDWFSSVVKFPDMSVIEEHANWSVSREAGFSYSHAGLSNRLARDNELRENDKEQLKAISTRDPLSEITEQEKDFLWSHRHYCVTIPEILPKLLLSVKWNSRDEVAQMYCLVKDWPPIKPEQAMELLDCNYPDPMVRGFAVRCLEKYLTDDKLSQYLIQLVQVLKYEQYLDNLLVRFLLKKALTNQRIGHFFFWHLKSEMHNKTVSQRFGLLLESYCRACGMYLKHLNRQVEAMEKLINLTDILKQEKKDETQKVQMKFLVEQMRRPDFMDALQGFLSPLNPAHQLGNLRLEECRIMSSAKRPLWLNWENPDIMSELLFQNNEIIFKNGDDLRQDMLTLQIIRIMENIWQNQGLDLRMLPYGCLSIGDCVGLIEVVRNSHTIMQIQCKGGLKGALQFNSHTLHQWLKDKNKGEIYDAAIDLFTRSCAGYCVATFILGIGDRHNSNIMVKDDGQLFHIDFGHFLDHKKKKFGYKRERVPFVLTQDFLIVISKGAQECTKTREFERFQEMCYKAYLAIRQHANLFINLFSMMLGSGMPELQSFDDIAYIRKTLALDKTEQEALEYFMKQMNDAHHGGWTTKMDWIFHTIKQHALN
Chain of UniProt P19784 (whole entry, looked up): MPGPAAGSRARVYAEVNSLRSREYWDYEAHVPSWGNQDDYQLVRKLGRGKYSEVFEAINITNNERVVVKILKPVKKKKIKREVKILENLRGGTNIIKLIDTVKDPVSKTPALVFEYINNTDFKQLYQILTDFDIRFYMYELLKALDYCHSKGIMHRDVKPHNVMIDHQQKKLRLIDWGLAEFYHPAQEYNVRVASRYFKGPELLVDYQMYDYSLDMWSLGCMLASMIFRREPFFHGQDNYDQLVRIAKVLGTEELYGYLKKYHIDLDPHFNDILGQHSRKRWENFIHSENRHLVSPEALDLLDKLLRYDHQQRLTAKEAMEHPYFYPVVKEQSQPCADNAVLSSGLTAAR

Series 1
Target: DNA polymerase theta, ATPase domain (POLQ, Homo sapiens, UniProt O75417)
Chain of UniProt O75417 (whole entry, unmodified, looked up): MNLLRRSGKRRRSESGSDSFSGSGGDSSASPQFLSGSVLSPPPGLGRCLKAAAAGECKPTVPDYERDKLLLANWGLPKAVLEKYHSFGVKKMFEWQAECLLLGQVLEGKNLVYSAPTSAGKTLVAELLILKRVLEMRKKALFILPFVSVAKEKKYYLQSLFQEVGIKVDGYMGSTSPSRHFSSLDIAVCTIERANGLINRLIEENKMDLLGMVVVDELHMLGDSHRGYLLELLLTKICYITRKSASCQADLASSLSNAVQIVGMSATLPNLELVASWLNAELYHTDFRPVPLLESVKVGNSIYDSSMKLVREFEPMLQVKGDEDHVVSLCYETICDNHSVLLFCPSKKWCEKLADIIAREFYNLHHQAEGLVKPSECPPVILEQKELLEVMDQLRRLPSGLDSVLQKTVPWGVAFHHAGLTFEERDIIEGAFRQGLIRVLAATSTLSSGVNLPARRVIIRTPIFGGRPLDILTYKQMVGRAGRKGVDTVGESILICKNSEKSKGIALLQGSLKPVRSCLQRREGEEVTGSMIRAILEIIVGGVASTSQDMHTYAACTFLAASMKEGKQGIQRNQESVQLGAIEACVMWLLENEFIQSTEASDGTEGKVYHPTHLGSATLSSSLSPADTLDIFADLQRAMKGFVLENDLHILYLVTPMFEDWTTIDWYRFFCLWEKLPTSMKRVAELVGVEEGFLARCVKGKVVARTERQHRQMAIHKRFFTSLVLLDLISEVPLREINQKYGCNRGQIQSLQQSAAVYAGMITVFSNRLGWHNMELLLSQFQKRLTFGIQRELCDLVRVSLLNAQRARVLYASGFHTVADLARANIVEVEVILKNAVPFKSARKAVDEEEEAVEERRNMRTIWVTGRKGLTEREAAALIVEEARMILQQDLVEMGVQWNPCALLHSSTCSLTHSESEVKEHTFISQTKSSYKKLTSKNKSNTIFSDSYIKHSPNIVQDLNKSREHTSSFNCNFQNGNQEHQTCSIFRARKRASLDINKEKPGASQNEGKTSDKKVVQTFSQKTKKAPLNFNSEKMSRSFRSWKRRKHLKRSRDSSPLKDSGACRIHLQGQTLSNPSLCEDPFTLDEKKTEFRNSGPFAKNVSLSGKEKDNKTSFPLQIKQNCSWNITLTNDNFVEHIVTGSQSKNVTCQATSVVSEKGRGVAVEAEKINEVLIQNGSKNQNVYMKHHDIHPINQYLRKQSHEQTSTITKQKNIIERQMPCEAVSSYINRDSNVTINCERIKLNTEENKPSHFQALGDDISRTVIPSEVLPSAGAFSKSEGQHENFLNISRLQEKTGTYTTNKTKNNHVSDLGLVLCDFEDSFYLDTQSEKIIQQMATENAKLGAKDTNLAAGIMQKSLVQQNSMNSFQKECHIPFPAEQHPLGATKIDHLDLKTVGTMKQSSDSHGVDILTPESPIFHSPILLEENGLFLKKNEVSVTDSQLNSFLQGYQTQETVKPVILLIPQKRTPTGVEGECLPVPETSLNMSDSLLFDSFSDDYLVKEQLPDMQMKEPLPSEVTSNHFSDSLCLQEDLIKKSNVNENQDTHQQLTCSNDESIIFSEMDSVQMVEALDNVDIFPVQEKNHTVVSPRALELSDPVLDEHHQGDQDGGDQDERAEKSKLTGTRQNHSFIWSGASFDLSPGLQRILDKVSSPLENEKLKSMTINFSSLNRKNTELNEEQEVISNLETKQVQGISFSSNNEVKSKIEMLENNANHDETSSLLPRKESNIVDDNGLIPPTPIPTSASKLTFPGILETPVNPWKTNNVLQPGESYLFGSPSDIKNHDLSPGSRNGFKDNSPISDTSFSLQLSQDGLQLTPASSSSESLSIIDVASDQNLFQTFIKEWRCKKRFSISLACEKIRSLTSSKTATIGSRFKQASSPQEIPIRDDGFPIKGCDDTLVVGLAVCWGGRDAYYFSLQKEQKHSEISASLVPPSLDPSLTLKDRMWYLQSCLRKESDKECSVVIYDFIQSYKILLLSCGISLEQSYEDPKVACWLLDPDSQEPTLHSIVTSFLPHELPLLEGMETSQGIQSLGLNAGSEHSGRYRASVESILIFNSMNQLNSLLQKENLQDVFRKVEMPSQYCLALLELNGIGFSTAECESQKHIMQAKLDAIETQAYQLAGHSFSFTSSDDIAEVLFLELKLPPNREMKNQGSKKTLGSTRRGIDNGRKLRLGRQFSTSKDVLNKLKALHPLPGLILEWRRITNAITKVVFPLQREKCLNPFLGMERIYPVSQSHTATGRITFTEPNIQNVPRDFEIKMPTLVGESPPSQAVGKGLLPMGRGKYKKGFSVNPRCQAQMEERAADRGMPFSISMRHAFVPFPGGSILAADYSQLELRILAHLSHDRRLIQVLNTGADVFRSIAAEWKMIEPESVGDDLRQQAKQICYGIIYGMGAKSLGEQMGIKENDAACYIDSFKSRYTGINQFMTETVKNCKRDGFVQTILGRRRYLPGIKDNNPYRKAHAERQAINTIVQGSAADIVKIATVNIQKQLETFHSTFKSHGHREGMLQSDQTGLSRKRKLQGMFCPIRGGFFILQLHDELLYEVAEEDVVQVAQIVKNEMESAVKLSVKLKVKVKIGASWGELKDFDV
Effect on: enzyme activity
Mode: inhibitor
Concentration: 77 µM
Relative to: untreated
| Compound | remaining activity |
| --- | --- |
| CO[C@]12C[C@@H](COC(=O)c3cncc(Br)c3)CN(C)[C@@H]1Cc1cn(C)c3cccc2c13 | 99% |
| Nc1ncnc2c1ncn2[C@@H]1O[C@H](COP(=O)(O)O)[C@@H](O)[C@H]1O | 99.7% |
| OC[C@H]1O[C@@H](n2cnc3c(N[C@H]4CCC[C@@H]4O)ncnc32)[C@H](O)[C@@H]1O | 115% |
| O=C(CCCS)NC1CCN(C(=O)COc2ccc(Cl)cc2Cl)CC1 | 102% |
| COc1cc2ncnc(N3CCN(C(=O)Nc4ccc(Oc5ccccc5)cc4)CC3)c2cc1OC | 112% |
| CC(=O)N[C@@H](CC(C)C)C(=O)N[C@@H](CC(C)C)C(=O)N[C@H](C=O)CCCN=C(N)N | 102% |
| CCCCCCCCCCCCCCCC[N+](C)(C)CCN(Cc1ccc(OC)cc1)c1ncccn1 | 102% |
| CC(C)(Oc1ccc(Cl)cc1)C(=O)O | 97.5% and 97.2% |

Series 2
Target: Beta-1 adrenergic receptor (ADRB1, Homo sapiens, UniProt P08588)
Chain of UniProt P08588 (whole entry, looked up): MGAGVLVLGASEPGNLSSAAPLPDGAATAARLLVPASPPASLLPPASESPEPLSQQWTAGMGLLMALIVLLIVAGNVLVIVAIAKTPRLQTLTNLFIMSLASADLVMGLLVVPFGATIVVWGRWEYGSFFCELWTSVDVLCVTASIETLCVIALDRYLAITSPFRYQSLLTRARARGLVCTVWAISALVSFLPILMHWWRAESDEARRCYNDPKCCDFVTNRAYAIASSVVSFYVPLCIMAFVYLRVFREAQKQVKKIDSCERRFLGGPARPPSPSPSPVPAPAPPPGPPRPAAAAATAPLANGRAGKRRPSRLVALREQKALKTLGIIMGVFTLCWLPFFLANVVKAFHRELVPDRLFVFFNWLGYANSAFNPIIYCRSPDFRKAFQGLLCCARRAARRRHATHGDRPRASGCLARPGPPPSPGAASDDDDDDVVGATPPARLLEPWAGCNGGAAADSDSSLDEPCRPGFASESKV
Mode: agonist
| Structure (SMILES) | EC50 |
| --- | --- |
| COc1ccccc1CN[C@H]1[C@H](O)[C@@H](N2CCN(c3ccccc3OC)CC2)[C@@H]2OC[C@H]1O2 | ≥ 100 µM |
| COc1ccccc1N1CCN([C@H]2[C@@H]3OC[C@@H](O3)[C@@H](NCc3ccco3)[C@@H]2O)CC1 | ≥ 100 µM |
| O=c1c2c3c(sc2ncn1CC(O)COc1ccc(Cl)cc1Cl)CCC3 (stereo not shown) | ≥ 100 µM |
| COc1ccccc1N1CCN([C@@H]2[C@H](O)[C@H](CO)O[C@@H]2CNC(=O)c2ccc(F)c(Cl)c2)CC1 | ≥ 100 µM |
| CC#CCn1cc2c3c(cccc31)[C@H](CC(C)C)N[C@H](C(=O)NCCOC)C2 | ≥ 100 µM |

Series 3
Species: human
Matrix: microsomes or S9
Concentration: 2 µM
Time: 0.5 h
| SMILES | remaining compound [%] |
| --- | --- |
| Cc1noc(C)c1Cc1c(C(=O)N2CCC(Cc3nc(C4CCOCC4)no3)CC2)noc1C | 1.36 |
| CC(c1ccccc1Cl)N1CCN(Cc2cc[nH]n2)CC1 (stereo not shown) | 64.6 |
| CC1CN(C(=O)C(C)(C)C)CC(C)N1C(=O)[C@@H]1C[C@H](C)CC(=O)N1 (stereo partly shown) | > 100 |
| CCn1nccc1-c1cc(C(=O)O)c2ccc(C)c(C)c2n1 | 54.6 |
| OC1(Cc2cccc(Br)c2)CCNCC1 | 64 |
| Cc1ccc(-c2noc(CCC(=O)NC(C)c3ccc(Cl)cc3)n2)c(=O)n1C(C)C (stereo not shown) | 1.37 |
| CNCc1cccc(Br)c1OCCS(C)(=O)=O | 64.6 |

Series 4
Structure (SMILES): C[C@H](c1cccc(C#N)c1)n1cc(Cl)cc(C(N)=O)c1=N
Effect on: cell-free assay
Method: competition with immobilised ligand
Concentration: 1 µM
| target | remaining binding |
| --- | --- |
| ABL2 (Homo sapiens, UniProt P42684) | 90% |
| MAP3K20 (Homo sapiens, UniProt Q9NYL2) | 86% |
| HIPK1 (Homo sapiens, UniProt Q86Z02) | 83% |
| SLK (Homo sapiens, UniProt Q9H2G2) | 100% |
| PLK3 (Homo sapiens, UniProt Q9H4B4) | 83% |
| PIK3CA (Homo sapiens, UniProt P42336, H1047L) | 92% |
| FLT3 (Homo sapiens, UniProt P36888) | 95% |
| TAOK1 (Homo sapiens, UniProt Q7L7X3) | 90% |
| BMPR2 (Homo sapiens, UniProt Q13873) | 97% |
| MARK2 (Homo sapiens, UniProt Q7KZI7) | 100% |
| DYRK2 (Homo sapiens, UniProt Q92630) | 84% |
| STK39 (Homo sapiens, UniProt Q9UEW8) | 100% |
| TXK (Homo sapiens, UniProt P42681) | 85% |
| CSNK2A2 (Homo sapiens, UniProt P19784) | 100% |
| KIT (Homo sapiens, UniProt P10721, V559D) | 83% |
| EGFR (Homo sapiens, UniProt P00533, G719C) | 100% |
| MAP3K4 (Homo sapiens, UniProt Q9Y6R4) | 47% |

For quick reference, copied from above (series 2):
| Structure (SMILES) | EC50 |
| --- | --- |
| COc1ccccc1N1CCN([C@H]2[C@@H]3OC[C@@H](O3)[C@@H](NCc3ccco3)[C@@H]2O)CC1 | ≥ 100 µM |
| O=c1c2c3c(sc2ncn1CC(O)COc1ccc(Cl)cc1Cl)CCC3 (stereo not shown) | ≥ 100 µM |
| COc1ccccc1N1CCN([C@@H]2[C@H](O)[C@H](CO)O[C@@H]2CNC(=O)c2ccc(F)c(Cl)c2)CC1 | ≥ 100 µM |
